Results collected from several papers.
Numbered parts are unrelated; each lists some results of a single study. Substitutions count along the parent as printed.

Block 1 — method: protein-binding microarray; molecule type: double-stranded DNA, one strand shown; matrix: in vitro; tested at: 2540 nM top; notes: 60-bp whole probe; with: salmon DNA 0.4 mg/ml; baseline: random background probes; reading: higher = stronger binding; endpoint: fitted relative affinity
Target: Interferon regulatory factor 3, full length, phosphomimetic (IRF3, Homo sapiens, UniProt Q14653, residues 1-427, S386D/S396D/S398D/S402D/T404D/S405D)
All sequences stand within: GCCTAGCAC … GTGCTAGGTCTTGATTCGCTTGACGCTGCTG
Target sequence (chain): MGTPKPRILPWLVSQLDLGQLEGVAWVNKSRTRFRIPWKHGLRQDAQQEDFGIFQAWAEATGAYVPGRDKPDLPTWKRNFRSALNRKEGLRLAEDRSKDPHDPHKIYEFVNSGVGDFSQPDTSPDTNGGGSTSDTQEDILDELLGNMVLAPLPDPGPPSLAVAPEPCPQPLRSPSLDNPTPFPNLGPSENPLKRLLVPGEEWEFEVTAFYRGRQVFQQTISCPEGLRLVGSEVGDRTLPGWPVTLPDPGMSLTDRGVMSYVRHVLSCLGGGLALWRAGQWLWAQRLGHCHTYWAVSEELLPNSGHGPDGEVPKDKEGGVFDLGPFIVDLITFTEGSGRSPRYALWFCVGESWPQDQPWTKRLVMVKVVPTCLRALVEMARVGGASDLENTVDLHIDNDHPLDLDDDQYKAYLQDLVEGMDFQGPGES
TTAGGAGTGGGTCTCGGTTA: -0.598 z-score
GACGAATTCAGTTCCGAGAC: 1.46 z-score
GAAGGTCTCCTTTTCCTGAC: 4.61 z-score
GACGATATCTGTCTCGAGAC: 0.56 z-score
GACGATATCAGTATCGAAAC: 1.91 z-score

Block 2 — method: RNA Bind-n-Seq; molecule type: RNA; matrix: in vitro; tested at: 365 nM; baseline: no-protein control; reading: higher = stronger binding; endpoint: RBNS enrichment (R)
Target: RNA binding protein fox-1 homolog 2, RRM domain, GST-SBP tag (RBFOX2, Homo sapiens, UniProt O43251-10, residues 100-194)
Notes: natural RNA segment, single round, ends assumed
Target sequence (chain): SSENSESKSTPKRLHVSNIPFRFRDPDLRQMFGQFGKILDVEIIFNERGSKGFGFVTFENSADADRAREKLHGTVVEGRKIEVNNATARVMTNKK
GGGAGUUCUACAGUCCGACGAUCCUUCAUCUCAGACUCCUAGGGGAAUGAAAGCUGUCUUCUGUGAAUGUGCAAGGGUUUGGCUCGUGUCAUUUGAAAACUCCUGGCUUAUCUAAUGGGACCAGCUUGUGAAGUGGAAUUCUCGGGUGCCAA: 1.36
GGGAGUUCUACAGUCCGACGAUCUUGACUCUGGUUCACAAUUUCGUACGUAGCUGGUUUGACGUAGAACUUUGUACUUCCCUUGCCGAAGUGAAUUGUUGAAGGCUGCAACCCACCCACCUUGAGUGUAGCAGUGGAAUUCUCGGGUGCCAA: 0.736
GGGAGUUCUACAGUCCGACGAUCUCACUUCAGGAGCAAGCUGUUUGCUGUGCUUACCCUUCACCUCAGUGCAGAGGUCUCCAGUGCCGAGCACAGGCACCUGCCAUCAGUAGUUCCUGUGUCAUCUUCACAUCUGGAAUUCUCGGGUGCCAA: 0.338

Other studies, line by line — CCND2: CCND2, cyclin fold, Cln2 fusion (human)
P1: GMNC docking peptide (human); KNAKRNLSSEFAN; partner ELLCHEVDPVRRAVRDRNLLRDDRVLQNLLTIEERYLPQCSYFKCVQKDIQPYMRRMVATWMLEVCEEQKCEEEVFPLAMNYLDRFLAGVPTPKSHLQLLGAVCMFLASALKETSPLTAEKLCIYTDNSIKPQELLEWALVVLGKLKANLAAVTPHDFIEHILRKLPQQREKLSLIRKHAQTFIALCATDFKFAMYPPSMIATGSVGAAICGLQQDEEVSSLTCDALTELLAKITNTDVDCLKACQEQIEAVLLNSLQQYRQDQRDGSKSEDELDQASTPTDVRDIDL
P2: PKN2 docking peptide (human); VSAVRKLDFSDTM; partner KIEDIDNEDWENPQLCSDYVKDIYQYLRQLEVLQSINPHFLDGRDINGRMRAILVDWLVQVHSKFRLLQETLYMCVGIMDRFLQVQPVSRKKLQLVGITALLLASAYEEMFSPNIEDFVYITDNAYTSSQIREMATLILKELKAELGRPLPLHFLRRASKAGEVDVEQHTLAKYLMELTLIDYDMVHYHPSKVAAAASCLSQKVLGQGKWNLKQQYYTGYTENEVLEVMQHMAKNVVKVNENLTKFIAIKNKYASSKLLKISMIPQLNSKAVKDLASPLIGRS
P1 L7N — normalised enrichment score (CCND2; yeast growth competition, sequencing; yeast; weak parent motif; baseline: not given, higher = stronger binding): 0.000857
PhoQ, residues 284 288 289 292 302 303 AGCYAI — fold induction (PhoP, residues 12 14 15 18 19 GQAIL (Escherichia coli, UniProt P23836); Sort-seq, item: YFP reporter; E. coli; PhoQ-PhoP variant library, with: 10 µM Mg2+; baseline: high Mg2+ state, higher = stronger signaling): 1.88
P2 S10M — normalised enrichment score (CCNB2, cyclin fold, Cln2 fusion (human); yeast growth competition, sequencing; yeast; weak parent motif; baseline: not given, higher = stronger binding): 0.215
P1 A3K — normalised enrichment score (CCND2; yeast growth competition, sequencing; yeast; weak parent motif; baseline: not given, higher = stronger binding): 0.196

Some of these lines once more (other studies, line by line):
P1 L7N — normalised enrichment score (CCND2; yeast growth competition, sequencing; yeast; weak parent motif; baseline: not given, higher = stronger binding): 0.000857
